Experimental data gathered from unrelated publications.
Parts stem from different laboratories: compare values within a part only.

Study 1 — technique: protein binding microarray; form: double-stranded DNA, one strand shown; sample: in vitro; tested at: not given; baseline: not given; direction: higher = stronger binding
Target: Histone acetyltransferase KAT6A, winged helix 2, GST fusion (KAT6A, Homo sapiens, UniProt Q92794, residues 85-181)
Notes: 8-mer, flanks averaged, mean of 2 arrays, mostly near background
Residues (chain): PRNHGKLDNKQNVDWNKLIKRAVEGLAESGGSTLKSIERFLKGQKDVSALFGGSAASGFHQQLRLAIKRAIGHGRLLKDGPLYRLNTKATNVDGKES
| Sequence | E-score |
| --- | --- |
| AAACCTTT | -0.0722 |
| TGCCGGCA | 0.183 |
| AGTCTCAA | -0.175 |
| CGATGTCC | 0.0182 |
| ACTAATGA | -0.0551 |
| GAAACAGC | 0.0705 |
| TCTTTAAA | 0.189 |
| AGTACTTC | 0.0107 |
| CGTTGGAC | -0.073 |
| GCGACCGA | 0.234 |
| GCAGCAGA | 0.126 |
| GTGACCGA | -0.00477 |
| CCCCGGCC | 0.0272 |
| AGTAGCCC | -0.0431 |
| AAGAACTT | 0.115 |
| TAGCGTGA | -0.176 |
| CATGTTGA | 0.15 |
| ATCAAAAT | 0.0526 |
| CGGTAAAG | -0.127 |
| ACTAAAGA | -0.0389 |
| AAAAACTC | 0.0887 |
| ACAACTAT | -0.137 |
| CCACACAG | -0.000485 |
| AACGGGTA | 0.143 |
| AATGCGGG | 0.154 |

Study 2 — technique: RNAcompete; form: RNA; sample: in vitro; tested at: 20 nM; notes: 7-mer, probes averaged, single round; baseline: mean of 7-mers; direction: higher = stronger binding
Target: PABPC1L2, full length, GST fusion (mouse, UniProt A0ABA7IW68)
Target sequence (chain): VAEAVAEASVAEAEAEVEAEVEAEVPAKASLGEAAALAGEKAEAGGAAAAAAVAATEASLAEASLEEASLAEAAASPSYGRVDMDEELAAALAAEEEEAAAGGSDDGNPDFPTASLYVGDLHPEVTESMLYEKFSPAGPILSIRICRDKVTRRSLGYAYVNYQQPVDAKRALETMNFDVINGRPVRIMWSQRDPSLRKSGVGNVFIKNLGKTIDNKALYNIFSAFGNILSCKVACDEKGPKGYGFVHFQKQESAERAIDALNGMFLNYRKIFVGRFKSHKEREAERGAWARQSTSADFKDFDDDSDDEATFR
| Sequence | 7-mer Z-score |
| --- | --- |
| GGGUCGU | -0.188 |
| ACUGGCU | -0.0826 |
| GGAAUUU | -0.112 |
| GUUUAUA | -0.237 |
| GCGUCUU | -0.373 |
| ACUCAUG | -0.0283 |
| UGCCUCG | -0.347 |
| CAGUUAA | -0.0337 |
| CUCGAGG | -0.208 |
| CUAUAGC | -0.237 |
| CUUGCCU | -0.249 |
| GAUGCAA | 0.122 |
| ACAUCUG | -0.117 |
| CUCCUAG | -0.371 |
| UUGGCAU | -0.115 |
| GUAGCCA | -0.199 |
| UUGACGU | -0.302 |
| UAUAUGG | -0.0609 |
| UAUUAUU | -0.327 |
| UAUCCAA | -0.146 |
| AGCUUUC | -0.364 |
| GAGGAUA | 0.142 |
| GAGAUUA | 0.0678 |
| AACCAAC | 0.198 |
| AUAGAGG | 0.0189 |

Study 3 — technique: RNA Bind-n-Seq; form: RNA; sample: in vitro; tested at: 365 nM; baseline: no-protein control; direction: higher = stronger binding
Target: RNA binding protein fox-1 homolog 2, RRM domain, GST-SBP tag (RBFOX2, Homo sapiens, UniProt O43251-10, residues 100-194)
Notes: natural RNA segment, single round, ends assumed
All sequences stand within: GGGAGUUCUACAGUCCGACGAUC … UGGAAUUCUCGGGUGCCAA
Construct (chain): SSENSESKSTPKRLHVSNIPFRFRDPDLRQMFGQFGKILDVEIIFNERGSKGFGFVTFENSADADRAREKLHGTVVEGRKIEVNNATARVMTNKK
| Sequence | RBNS enrichment (R) |
| --- | --- |
| CCCAAAGCGGGACGCCGCAGGUGUUUGGCACCCAAAUCACAUCUCACCUCCGAACUGUUCAAGUGUCCCCAGACCCUUCUUGCCUGCUGGGCUCCCCCCAGUGGGAUGGG | 0.418 |
| CUUGCUGGAAAUGUGCCUACAAUGGCCUUGUAACAGCCAUUGUUCCCAACAGCAUCACUUAGGGGUGUGAAAAGAAGUAUUUUUGAACCUGUUGUCUGGUUUUGAAAAAC | 0.255 |
| UGGUUCUGGUUUAACUAAUAUUUGUCUGUGUGCUACUAACAGAUUAUAAUAAAUUGUCAUCAGUGAACUGUGUUUGAUGCCUUCUUCUAUCUGGAAGAGAUAGACAGACA | 0.588 |
| UUGAUAAGCUAUGUUGUUGCACUUUAAACAUUUAAAUUAUACAAUCAUCAACCCCCAACCCUCUGGGUCUCUUGGAUUUCAGAGUGAAAACUUGAUUGGCAUUGAGAGGU | 3.3 |
| CAAGUGCAUAUAAGAUGCCCUGAAAAGAGUAACAAAGUAUGCUUUGCCUGUUUCCACUUACCAGGAAAUUCCUUCAGAACUAGAUUAGCAUUGCCCUGCCUGUCUGAAAG | 0.372 |
| GCAGGAGGUGGACACCCAGCCAGAGGCCUGGCUCAAGGUGACCUCACCUUCACCAUGGGCUUCCUGGGUGCGCGGGCCUGAGCGCAGGUUGUUUUGUACAUAUUGGAAUA | 0.369 |
| UAAGCUACAUCCCCAGUCCCUCUUUCUAGAAAACAGAUAAGUCCAUGUUCAGGGGAGAAGAGGUCACAGGUCAGGCCAGCUGCCCCAUCCUUUAGUUCGGGGUUAGCUCC | 0.293 |
| AUUCUCACAUGACAUUUCAAUUCAUCUCUACCAAUGAAGAGCGUCCUCCCUGUUGGGAGCAAUCUGUACGUCUGUUUUGUCAGCUUCAGGUUCUGGUACUUUGAAGUCAA | 0.293 |
| CCCUGGCAGCCAUGUUUAGGAAACACAGUAUACCCACUCCCUGCACCACCAGACACGUGCCCACAUCUGUCCCACUCUGGUCCUCGGGGGCCACUCCACCCUUAGGGAGC | 0.439 |
| AUGUGCAAAUAAUACCAUAUUCAUUUUUUAUUUAACAUGGGGAUGGAAUGGGGAUAGCAUACAUUUUAUUUGUACAAUAUUUAACAAUCACUUAUUCAAGGUGGGAUUUU | 0.626 |
| UAAUCAAAUUAACUGAUUUUGUUUUCACCCUAAAUACAUACAACCAUUCCUCCACUUUCAUAAAUUUGACAAAUAAUAAGCCUCUCCCAUUAGGAUUUUCUGUUUUAUAG | 1.56 |
| CCUCCUUCCCAGGGACCAGCACCUUCAAGCGCUCCAGGGCCGUGAGGGCAAGAGGGGGACCUGCCACCAGGGAGCUUCCUGGCUCUGGGGGACCCAGGUGGGACUUAGCA | 2.04 |

Study 4 — technique: aptamer microarray, sandwich; form: DNA with 2'F-ANA; sample: in vitro; tested at: 200 nM; together with: Cy3 exosite-II aptamer, 400 nM; direction: higher = stronger binding; sequence: GGTTGGTGTGGTTGG
Target: Prothrombin, mature alpha-thrombin (F2, Homo sapiens, UniProt P00734)
Notes: whole 15-mer aptamer, many near background
| Modification | mean fluorescence intensity [a.u.] |
| --- | --- |
| 2'F-ANA at 1 3 4 7 8 9 12 13 15 | 275 |
| 2'F-ANA at 1 5 7 8 9 15 | 72.2 |
| 2'F-ANA at 2 5 8 10 11 12 | 47.9 |
| 2'F-ANA at 3 4 8 9 10 11 | 278 |
| 2'F-ANA at 6 7 8 9 11 15 | 431 |
| 2'F-ANA at 2 4 5 7 8 12 14 15 | 81.7 |
| 2'F-ANA at 4 5 6 7 8 13 14 15 | 53.6 |
| 2'F-ANA at 2 4 6 7 10 11 12 14 15 | 57.6 |
| 2'F-ANA at 1 4 6 7 8 9 10 | 52.2 |
| 2'F-ANA at 6 7 13 14 | 199 |
| 2'F-ANA at 1 3 10 12 14 15 | 59.3 |
| 2'F-ANA at 1 3 7 8 14 | 110 |
| 2'F-ANA at 1 6 7 11 | 156 |
| 2'F-ANA at 3 4 5 9 11 15 | 121 |
| 2'F-ANA at 4 6 7 12 14 15 | 122 |
| 2'F-ANA at 2 3 7 11 12 | 1130 |
| 2'F-ANA at 1 4 10 12 14 15 | 44.8 |
| 2'F-ANA at 2 5 6 9 10 13 14 | 45 |

Some of these lines once more (study 2):
| Sequence | 7-mer Z-score |
| --- | --- |
| CUUGCCU | -0.249 |
| GUUUAUA | -0.237 |
| AUAGAGG | 0.0189 |
| ACUCAUG | -0.0283 |
| GGAAUUU | -0.112 |
| CUCCUAG | -0.371 |
| AACCAAC | 0.198 |
